{"data": "Values quoted from earlier work, collected from citations in different studies", "B1": "side-chain stapled; chain CPINIFHPPPDC (also: sidechain bridge or staple (positions not given here))", "note": "Protocols differ between the studies behind these lines. ± gives the spread as reported. No end group written: not given here.", "chain of UniProt P04692 (whole entry, unmodified, looked up)": "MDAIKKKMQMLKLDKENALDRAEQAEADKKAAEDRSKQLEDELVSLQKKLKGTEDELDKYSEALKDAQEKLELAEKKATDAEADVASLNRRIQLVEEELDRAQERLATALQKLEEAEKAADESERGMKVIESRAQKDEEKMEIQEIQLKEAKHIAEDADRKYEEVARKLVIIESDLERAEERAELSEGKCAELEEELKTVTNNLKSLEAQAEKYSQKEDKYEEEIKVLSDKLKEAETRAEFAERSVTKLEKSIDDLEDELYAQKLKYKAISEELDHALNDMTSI", "chain of UniProt Q00987 (whole entry, looked up)": "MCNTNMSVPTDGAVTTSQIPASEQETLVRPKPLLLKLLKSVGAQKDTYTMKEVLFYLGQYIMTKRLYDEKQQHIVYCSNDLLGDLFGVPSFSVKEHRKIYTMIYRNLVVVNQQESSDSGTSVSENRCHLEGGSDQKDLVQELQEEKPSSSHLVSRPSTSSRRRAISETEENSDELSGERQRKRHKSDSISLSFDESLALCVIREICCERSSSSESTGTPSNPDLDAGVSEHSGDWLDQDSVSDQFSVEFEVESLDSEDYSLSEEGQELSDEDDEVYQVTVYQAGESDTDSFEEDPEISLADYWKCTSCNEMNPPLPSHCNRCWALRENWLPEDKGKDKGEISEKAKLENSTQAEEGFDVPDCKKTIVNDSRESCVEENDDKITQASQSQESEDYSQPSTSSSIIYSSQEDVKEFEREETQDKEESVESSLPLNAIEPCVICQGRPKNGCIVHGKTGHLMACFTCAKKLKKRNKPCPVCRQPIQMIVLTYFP"}
{"Substance": "CLQKTPKQC", "tested on": "Programmed cell death 1 ligand 1 (CD274, Homo sapiens, UniProt Q9NZQ7)", "system": "peptide", "quantity": "Kd", "result": "373 nM"}
{"Substance": "STFGYRRGLSKYESIDEDELLASLSAEELKELERELEDIE (Lmod2(2-41); sequence looked up)", "tested on": "Tropomyosin alpha-1 chain (Tpm1, Rattus norvegicus, UniProt P04692, K15N)", "assay": "CD thermal unfolding", "system": "peptide", "scale": "complex", "quantity": "melting temperature", "result": "28 ± 0.2 °C"}
{"Substance": "α-synuclein", "tested on": "Hsp70", "setting": "fibrils", "quantity": "Kd", "result": "~10000 nM"}
{"Substance": "darobactin", "tested on": "BamA (BAM complex)", "assay": "binding, isothermal titration calorimetry", "quantity": "Kd", "result": "1200 nM"}
{"Substance": "TNSKQGETTV", "tested on": "CHAPSYN-110 PDZ domains 2/3", "assay": "binding, fluorescence polarization", "system": "peptide", "quantity": "Kd", "result": "8040 nM"}
{"Substance": "pegcetacoplan", "tested on": "Complement C3 (Homo sapiens, UniProt P01024)", "system": "human subjects", "setting": "subcutaneous, 45 mg single dose, lowest dose", "scale": "reference: placebo", "quantity": "serum level increase", "result": "no effect"}
{"Substance": "RRISSLESEV", "tested on": "CHAPSYN-110 PDZ domain 3", "assay": "binding, fluorescence polarization", "system": "peptide", "quantity": "Kd", "result": "8430 nM"}
{"Substance": "CCL5", "tested on": "US28 wild type", "assay": "binding, radioligand competition", "quantity": "Kd", "result": "1.6 nM"}
{"Substance": "NGLTSPQRSPFPK", "tested on": "Cdc4", "assay": "binding", "system": "peptide", "quantity": "Kd", "result": "2600 nM"}
{"Substance": "B1", "tested on": "streptavidin", "assay": "binding, surface plasmon resonance", "quantity": "Kd", "result": "340 nM"}
{"Substance": "KRRWKKNFIAVSAANRFKKISSS", "tested on": "calmodulin EF1/EF2 domain", "assay": "binding", "system": "peptide", "setting": "pH 7.4", "quantity": "Kd", "result": "80 ± 6 nM"}
{"Substance": "PVTPSTTKSFK", "tested on": "Cdc4", "assay": "binding", "system": "peptide", "quantity": "Kd", "result": "7000 nM"}
{"Substance": "teicoplanin", "system": "human patients", "setting": "dose not given", "quantity": "volume of distribution steady-state", "result": "1.04 L/kg"}
{"Substance": "Ac-LTFXEYWAQLXS-NH2 (N-acetyl, C-amide)", "tested on": "E3 ubiquitin-protein ligase Mdm2 (MDM2, Homo sapiens, UniProt Q00987)", "assay": "binding, fluorescence polarization", "system": "peptide", "quantity": "Kd", "result": "6.5 ± 0.6 nM"}
{"Substance": "VRPGVKESLV", "tested on": "CHAPSYN-110 PDZ domain 3", "assay": "binding, fluorescence polarization", "system": "peptide", "quantity": "Kd", "result": "7060 nM"}
{"Substance": "KWIKIWFIWRRIKWRK", "tested on": "Staphylococcus aureus", "system": "peptide, methicillin-resistant", "quantity": "MIC", "result": "31.2 µg/mL"}
{"Substance": "DTKNYKQTSV", "tested on": "CHAPSYN-110 PDZ domain 3", "assay": "binding, fluorescence polarization", "system": "peptide", "quantity": "Kd", "result": "989 nM"}
{"Substance": "CD80", "tested on": "CD28", "assay": "binding", "scale": "lower = stronger binding", "quantity": "Kd", "result": "~4000 nM"}
{"Substance": "C-peptide", "tested on": "Cu(II)", "setting": "pH 7.4", "quantity": "Kd", "result": "10 nM"}
{"Substance": "AMTLRKRKFAWYVLSSSLKWLIKKAKKIGVQVCGFE", "tested on": "Staphylococcus aureus", "system": "peptide, ATCC 6538", "quantity": "MIC", "result": "4 µM"}
{"note": "For quick reference, copied from above:"}
{"Substance": "B1", "tested on": "streptavidin", "assay": "binding, surface plasmon resonance", "quantity": "Kd", "result": "340 nM"}
{"Substance": "STFGYRRGLSKYESIDEDELLASLSAEELKELERELEDIE (Lmod2(2-41); sequence looked up)", "tested on": "Tropomyosin alpha-1 chain (Tpm1, Rattus norvegicus, UniProt P04692, K15N)", "assay": "CD thermal unfolding", "system": "peptide", "scale": "complex", "quantity": "melting temperature", "result": "28 ± 0.2 °C"}
